Published values gathered from unrelated publications.
Lines come from different studies, so protocols differ. ± gives the spread as reported.
TRPV1: Transient receptor potential cation channel subfamily V member 1 (TRPV1, Homo sapiens, UniProt Q8NER1)
UniProt Q8NER1, sequence (whole entry, looked up): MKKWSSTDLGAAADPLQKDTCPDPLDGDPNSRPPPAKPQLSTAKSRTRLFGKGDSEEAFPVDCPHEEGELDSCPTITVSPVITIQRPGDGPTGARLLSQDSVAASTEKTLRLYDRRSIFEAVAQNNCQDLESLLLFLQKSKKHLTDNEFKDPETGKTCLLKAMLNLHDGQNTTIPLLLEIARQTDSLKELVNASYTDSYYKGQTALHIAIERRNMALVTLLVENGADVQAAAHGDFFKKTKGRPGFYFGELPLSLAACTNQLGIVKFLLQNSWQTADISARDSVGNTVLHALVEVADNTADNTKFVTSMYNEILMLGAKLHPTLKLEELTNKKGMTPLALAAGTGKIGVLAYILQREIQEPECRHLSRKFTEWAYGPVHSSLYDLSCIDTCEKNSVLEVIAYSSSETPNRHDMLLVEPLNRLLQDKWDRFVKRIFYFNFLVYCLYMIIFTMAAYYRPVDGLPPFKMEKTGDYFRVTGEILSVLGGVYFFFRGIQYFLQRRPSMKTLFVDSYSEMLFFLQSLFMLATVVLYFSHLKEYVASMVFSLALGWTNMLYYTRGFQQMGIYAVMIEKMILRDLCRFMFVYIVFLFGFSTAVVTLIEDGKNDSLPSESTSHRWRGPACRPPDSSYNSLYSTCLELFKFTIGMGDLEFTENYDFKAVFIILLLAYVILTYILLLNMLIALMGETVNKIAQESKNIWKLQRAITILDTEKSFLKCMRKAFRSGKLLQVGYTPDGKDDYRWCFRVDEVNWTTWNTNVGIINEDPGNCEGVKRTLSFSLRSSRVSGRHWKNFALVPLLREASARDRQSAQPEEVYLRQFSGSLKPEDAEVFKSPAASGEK
GABA A receptor alpha-2/beta-2/gamma-2: GABA A receptor alpha-2/beta-2/gamma-2 (Homo sapiens, UniProt P18507+P47869+P47870)
UniProt P18507, sequence (whole entry, looked up): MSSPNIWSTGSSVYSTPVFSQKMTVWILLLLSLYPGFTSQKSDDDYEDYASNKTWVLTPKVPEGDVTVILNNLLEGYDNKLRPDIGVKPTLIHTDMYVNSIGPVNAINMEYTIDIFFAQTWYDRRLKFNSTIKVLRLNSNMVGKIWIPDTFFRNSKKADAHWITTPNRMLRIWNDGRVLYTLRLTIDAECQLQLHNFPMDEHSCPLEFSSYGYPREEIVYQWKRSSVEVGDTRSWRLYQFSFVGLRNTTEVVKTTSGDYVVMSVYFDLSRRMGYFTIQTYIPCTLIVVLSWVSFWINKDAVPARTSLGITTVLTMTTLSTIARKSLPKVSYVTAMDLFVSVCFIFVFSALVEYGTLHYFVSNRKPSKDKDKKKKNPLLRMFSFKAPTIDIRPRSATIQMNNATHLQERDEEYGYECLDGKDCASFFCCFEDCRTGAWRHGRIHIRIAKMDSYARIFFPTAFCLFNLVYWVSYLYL
UniProt P47870, sequence (whole entry, looked up): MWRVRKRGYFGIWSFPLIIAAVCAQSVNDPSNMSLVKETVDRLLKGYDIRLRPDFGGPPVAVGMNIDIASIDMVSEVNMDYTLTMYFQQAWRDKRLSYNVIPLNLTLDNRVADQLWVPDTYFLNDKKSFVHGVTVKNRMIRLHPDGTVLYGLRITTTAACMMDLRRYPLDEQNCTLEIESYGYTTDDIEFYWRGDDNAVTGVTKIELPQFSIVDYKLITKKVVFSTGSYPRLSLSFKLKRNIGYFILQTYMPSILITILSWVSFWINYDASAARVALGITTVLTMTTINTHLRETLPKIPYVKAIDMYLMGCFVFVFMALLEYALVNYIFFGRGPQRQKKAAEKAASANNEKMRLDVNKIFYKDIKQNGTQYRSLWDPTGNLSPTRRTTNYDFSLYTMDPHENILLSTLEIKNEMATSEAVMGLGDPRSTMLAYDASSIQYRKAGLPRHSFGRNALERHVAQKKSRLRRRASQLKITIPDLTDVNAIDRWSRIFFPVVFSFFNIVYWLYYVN
UniProt P47869, sequence (whole entry, looked up): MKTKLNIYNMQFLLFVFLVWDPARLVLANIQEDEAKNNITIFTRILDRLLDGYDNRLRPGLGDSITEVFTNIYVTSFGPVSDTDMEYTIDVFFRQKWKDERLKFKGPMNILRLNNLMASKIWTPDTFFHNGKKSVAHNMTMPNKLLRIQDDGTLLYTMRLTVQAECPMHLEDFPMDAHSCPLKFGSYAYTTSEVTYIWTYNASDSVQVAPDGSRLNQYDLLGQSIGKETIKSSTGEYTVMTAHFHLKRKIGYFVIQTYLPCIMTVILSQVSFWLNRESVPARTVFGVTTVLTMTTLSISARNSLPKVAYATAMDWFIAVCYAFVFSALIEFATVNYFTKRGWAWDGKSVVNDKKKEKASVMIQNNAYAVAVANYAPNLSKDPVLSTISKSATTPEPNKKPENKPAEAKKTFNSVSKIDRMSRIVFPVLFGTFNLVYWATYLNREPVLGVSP
UniProt P47746, sequence (whole entry, looked up): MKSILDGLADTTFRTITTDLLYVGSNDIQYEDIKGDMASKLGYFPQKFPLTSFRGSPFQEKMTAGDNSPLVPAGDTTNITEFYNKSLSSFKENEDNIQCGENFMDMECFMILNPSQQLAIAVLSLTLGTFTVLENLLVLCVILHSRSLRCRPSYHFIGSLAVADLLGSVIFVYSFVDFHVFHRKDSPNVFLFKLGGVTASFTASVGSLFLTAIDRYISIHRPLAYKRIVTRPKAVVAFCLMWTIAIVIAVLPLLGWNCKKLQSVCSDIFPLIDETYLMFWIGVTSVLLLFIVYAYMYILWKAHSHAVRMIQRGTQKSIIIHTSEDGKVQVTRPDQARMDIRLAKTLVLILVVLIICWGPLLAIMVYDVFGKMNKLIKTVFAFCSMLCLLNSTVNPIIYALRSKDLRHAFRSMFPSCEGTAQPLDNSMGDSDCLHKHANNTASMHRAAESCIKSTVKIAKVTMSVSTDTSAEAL
UniProt Q01959, sequence (whole entry, looked up): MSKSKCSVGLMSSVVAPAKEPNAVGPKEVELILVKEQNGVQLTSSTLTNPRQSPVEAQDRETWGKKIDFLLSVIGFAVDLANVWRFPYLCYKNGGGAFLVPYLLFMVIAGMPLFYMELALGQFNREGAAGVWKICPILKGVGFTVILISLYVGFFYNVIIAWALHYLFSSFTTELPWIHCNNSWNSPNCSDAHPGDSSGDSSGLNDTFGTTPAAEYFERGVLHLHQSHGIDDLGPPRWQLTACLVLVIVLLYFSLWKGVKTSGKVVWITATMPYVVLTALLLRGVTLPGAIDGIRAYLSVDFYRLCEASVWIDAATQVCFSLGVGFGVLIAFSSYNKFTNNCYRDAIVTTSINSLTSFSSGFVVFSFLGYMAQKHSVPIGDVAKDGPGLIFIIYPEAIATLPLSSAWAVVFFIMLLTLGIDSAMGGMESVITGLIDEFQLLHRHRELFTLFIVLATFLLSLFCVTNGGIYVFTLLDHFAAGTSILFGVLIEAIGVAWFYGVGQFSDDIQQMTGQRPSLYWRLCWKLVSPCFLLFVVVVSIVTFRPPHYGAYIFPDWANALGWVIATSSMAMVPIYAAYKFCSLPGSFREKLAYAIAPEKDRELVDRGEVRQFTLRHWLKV
UniProt P62813, sequence (whole entry, unmodified, looked up): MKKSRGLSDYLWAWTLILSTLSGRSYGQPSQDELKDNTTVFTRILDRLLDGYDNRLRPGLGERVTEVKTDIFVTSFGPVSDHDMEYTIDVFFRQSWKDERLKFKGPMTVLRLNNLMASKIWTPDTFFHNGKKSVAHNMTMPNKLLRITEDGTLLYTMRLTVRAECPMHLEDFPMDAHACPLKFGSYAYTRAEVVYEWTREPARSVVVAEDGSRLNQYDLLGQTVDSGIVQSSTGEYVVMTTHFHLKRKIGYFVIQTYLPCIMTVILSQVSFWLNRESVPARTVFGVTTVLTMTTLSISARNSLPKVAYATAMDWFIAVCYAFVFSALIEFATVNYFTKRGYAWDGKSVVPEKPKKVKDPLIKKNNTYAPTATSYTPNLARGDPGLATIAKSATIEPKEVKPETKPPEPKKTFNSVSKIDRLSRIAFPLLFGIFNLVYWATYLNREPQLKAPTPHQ
UniProt P15431, sequence (whole entry, unmodified, looked up): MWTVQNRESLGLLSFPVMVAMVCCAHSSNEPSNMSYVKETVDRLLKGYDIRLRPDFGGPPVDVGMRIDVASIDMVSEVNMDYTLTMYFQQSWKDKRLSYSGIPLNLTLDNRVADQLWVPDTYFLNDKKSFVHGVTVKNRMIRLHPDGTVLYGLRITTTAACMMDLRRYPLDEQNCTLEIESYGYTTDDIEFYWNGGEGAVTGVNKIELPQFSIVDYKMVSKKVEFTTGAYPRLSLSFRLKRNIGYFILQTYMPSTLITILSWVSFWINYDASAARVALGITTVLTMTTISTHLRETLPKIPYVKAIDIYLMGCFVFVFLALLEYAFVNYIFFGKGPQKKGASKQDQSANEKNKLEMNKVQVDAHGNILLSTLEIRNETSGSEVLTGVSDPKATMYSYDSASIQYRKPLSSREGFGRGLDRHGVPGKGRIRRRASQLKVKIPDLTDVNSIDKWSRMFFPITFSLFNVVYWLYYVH
UniProt P32300, sequence (whole entry, looked up): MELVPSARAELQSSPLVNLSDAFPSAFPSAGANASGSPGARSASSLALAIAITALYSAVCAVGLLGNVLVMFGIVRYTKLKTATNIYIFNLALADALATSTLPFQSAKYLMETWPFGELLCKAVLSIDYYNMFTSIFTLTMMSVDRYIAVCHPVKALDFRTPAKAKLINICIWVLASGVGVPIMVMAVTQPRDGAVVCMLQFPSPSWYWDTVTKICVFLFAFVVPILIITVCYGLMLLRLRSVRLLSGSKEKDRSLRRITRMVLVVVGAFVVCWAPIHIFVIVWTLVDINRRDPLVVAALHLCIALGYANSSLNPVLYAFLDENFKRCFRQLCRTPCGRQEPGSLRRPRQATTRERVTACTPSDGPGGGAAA

CC1=CC[C@@H]2[C@@H](C1)c1c(O)cc(CC#CCCCNS(C)(=O)=O)cc1OC2(C)C
EC50 (Cnr1 (Rattus norvegicus, UniProt P20272); GTPγS binding, agonist, radiometric; cell membranes): 0.09 nM

C[C@H](N)Cc1cccc(C(F)(F)F)c1
EC50 (HTR2B (Homo sapiens, UniProt P41595); Gq dissociation, agonist, BRET; 60 min, 37 °C): 6.78 nM

CN1CCCCC1Cn1cc(C(=O)c2cccc3ccccc23)c2ccccc21 (stereo not shown)
EC50 (TRPV1; calcium signal, agonist, fluorescence): 6800 nM

C[C@]12C=CC3=C4CCC(=O)C=C4CCC3C1CC[C@@H]2O (stereo partly shown)
EC50 (Androgen receptor, ligand-binding domain (Ar, Rattus norvegicus, UniProt P15207); reporter gene, agonist, β-lactamase reporter qHTS; Ar-bla cells): 2.97 nM

CCCCn1cc(C(=O)c2cccc3ccccc23)c2ccccc21
EC50 (Cnr1 (Mus musculus, UniProt P47746); GTPγS binding, agonist; cell membranes): 276 nM

C[C@@]1(O)CC[C@H]2[C@H](CC[C@@H]3[C@@H]2CC[C@]2(C)[C@@H](C(=O)Cn4cc(C#N)cn4)CC[C@@H]32)C1
EC50 (GABA A receptor alpha-2/beta-2/gamma-2; GABA current potentiation, positive modulator, two-electrode voltage clamp; Xenopus laevis oocytes; 30 s preincubation, added: GABA EC10): 380 ± 60 nM

CCCCCn1cc(C(=O)C2C(C)(C)C2(C)C)c2ccccc21
EC50 (TRPV1; calcium signal, agonist, fluorescence): 7900 nM

CC(=O)[C@H]1CC[C@H]2[C@@H]3CC[C@H]4C[C@H](O)CC[C@]4(C)[C@H]3CC[C@]12C
EC50 (GABA A receptor alpha-2/beta-2/gamma-2; GABA current potentiation, positive modulator, two-electrode voltage clamp; Xenopus laevis oocytes; 30 s preincubation, added: GABA EC10): 110 ± 40 nM

CNC(C)C(=O)c1ccccc1 (stereo not shown)
EC50 (SLC6A3 (Homo sapiens, UniProt Q01959); [3H]dopamine release, releaser; HEK293 expressing target): 1570 ± 480 nM

CCCCCCC(C)(C)c1ccc([C@@H]2C[C@H](O)CC[C@H]2CCCO)c(O)c1
EC50 (Cnr1 (Mus musculus, UniProt P47746); GTPγS binding, agonist; cell membranes): 7.5 nM

C[C@]12CC[C@@H](O)C[C@@H]1CC[C@@H]1[C@@H]2CC[C@]2(C)[C@@H](C(=O)CO)CC[C@@H]12
EC50 (Gabrb1/Gabrg2/Gabra1 (Rattus norvegicus, UniProt P15431+P18508+P62813, S325C); ion current, agonist, two-electrode voltage clamp; Xenopus oocytes; second activation phase): 41 nM

CC(=O)[C@H]1CC[C@H]2[C@@H]3CC[C@H]4C[C@](C)(O)CC[C@]4(C)[C@H]3CC[C@]12C
EC50 (GABA A receptor alpha-2/beta-2/gamma-2; GABA current potentiation, positive modulator, two-electrode voltage clamp; Xenopus laevis oocytes; 30 s preincubation, added: GABA EC10): 190 ± 70 nM

CN(C(=O)/C=C/c1ccoc1)[C@@H]1CC[C@@]2(O)[C@H]3Cc4cccc5c4[C@@]2(CCN3CC2CC2)[C@H]1O5
EC50 (Oprd1 (Mus musculus, UniProt P32300); agonist; CHO cell membranes; added: 50 mM NaCl): 334 ± 35.1 nM
